Results gathered from unrelated publications.
Parts stem from different laboratories: compare values within a part only.

Sample 1
Target: Interferon regulatory factor 7, full length, phosphomimetic (IRF7, Homo sapiens, UniProt Q92985, residues 1-503, S471D/S472D/S475D/S476D/S477D/S483D/S484D/S487D)
Technique: protein-binding microarray
Molecule type: double-stranded DNA, one strand shown
Sample: in vitro
Tested at: 2200 nM top
Setting: 60-bp whole probe
Added: salmon DNA 0.4 mg/ml
Baseline: random background probes
Reading: higher = stronger binding
Constant ends, left off below: GCCTAGCAC … GTCTTGATTCGCTTGACGCTGCTG
Construct (chain): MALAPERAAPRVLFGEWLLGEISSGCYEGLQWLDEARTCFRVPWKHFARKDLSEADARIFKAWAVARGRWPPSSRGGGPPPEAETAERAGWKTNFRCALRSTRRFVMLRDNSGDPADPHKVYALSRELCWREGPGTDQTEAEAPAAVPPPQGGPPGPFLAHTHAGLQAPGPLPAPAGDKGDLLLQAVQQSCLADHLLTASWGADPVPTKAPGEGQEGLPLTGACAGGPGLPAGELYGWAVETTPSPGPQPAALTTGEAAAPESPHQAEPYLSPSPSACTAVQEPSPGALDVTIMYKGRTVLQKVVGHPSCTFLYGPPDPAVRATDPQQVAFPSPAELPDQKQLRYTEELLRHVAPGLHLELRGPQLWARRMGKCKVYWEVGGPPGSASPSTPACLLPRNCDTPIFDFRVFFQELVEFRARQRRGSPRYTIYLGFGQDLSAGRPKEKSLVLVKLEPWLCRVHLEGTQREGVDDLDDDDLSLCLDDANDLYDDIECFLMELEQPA
`CTAGGTTCCGGTTTCGGTTAGTGCTAG` — result for “fitted relative affinity”: 8.45 z-score.
`GTGTGTTTGAGTCTTCTCCTGTGCTAG` — result for “fitted relative affinity”: 1.22 z-score.
Under “fitted relative affinity”, `GTAGGTCTCCTTTTCCTTTAGTGCTAG` is recorded as 1.95 z-score.
Under “fitted relative affinity”, `TTAGATTTCGGGTTGCGATTAGTGCTA` is recorded as 6.1 z-score.
For `GCCCCACCCGCTCTGGCCCCGTGCTAG`, “fitted relative affinity” read -0.109 z-score.
Under “fitted relative affinity”, `TTAGAACGGGGGACTGGATTAGTGCTA` is recorded as 0.746 z-score.
`TCACTTTTCTTTTCTTTACTGTGCTAG` — result for “fitted relative affinity”: 7.9 z-score.
For `TCAATTTTAGTTTTCATACTGTGCTAG`, “fitted relative affinity” read 1.91 z-score.
`TCACATTCCAATTCTTTTACTGTGCTA` — result for “fitted relative affinity”: 2.52 z-score.

Sample 2
Target: RNA binding protein fox-1 homolog 2, RRM domain, GST-SBP tag (RBFOX2, Homo sapiens, UniProt O43251-10, residues 100-194)
Technique: RNA Bind-n-Seq
Molecule type: RNA
Sample: in vitro
Tested at: 365 nM
Setting: natural RNA segment, single round, ends assumed
Baseline: no-protein control
Reading: higher = stronger binding
Constant ends, left off below: GGGAGUUCUACAGUCCGACGAUC … UGGAAUUCUCGGGUGCCAA
Construct (chain): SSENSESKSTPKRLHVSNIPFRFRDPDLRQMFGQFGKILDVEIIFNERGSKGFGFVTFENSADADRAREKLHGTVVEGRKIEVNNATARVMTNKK
Under “RBNS enrichment (R)”, `CUUAUCCCAGCUUUACAAAAACUCUUCAUGUGAAUCUUAACUUGCAAAAGGAGAAAGAUAAAAUACAGAAGACUGGCCCCAGAGAGACCUCAGAUCAGUAUUGUGCAUUG` is recorded as 0.435.
`UGUGCUAUUUAUUCUUGCACGAUUUAGGCAAUUAUCUCUCUUCCAGGGAGUACCUUUUUUUCUAGUUGAGAAUUAAUAAUGGUCCAUCUCUUUUGAUCAUAUCAAGCUAG` — result for “RBNS enrichment (R)”: 0.299.
Under “RBNS enrichment (R)”, `AGUGUGGAAGUACUACUUAACUGUCUGUCCUGCUUGGCUGUCGUUAUCGUUUUCUGGUGAUGUUGUGCUAACAAUAAGAAGUACACGGGUUUAUUUCUGUGGCCUGAGAA` is recorded as 0.709.
For `UCCCACGAAGGCCAGACGCUGAUUUUAUUUUCUCAUUUCCACAGAUUGACAAGGAUAAGUCAGUUGUUUGUAAACUCUAGGUAGCAGAUGAGAAAUAAUUCACUUAAUAU`, “RBNS enrichment (R)” read 0.512.
Under “RBNS enrichment (R)”, `UGUCAGAUGCACCCAAGUCCUUAGCCCAUCUGUGCCACUGCAAGAGUCUGCUCUUGUAUUUCUUUCCCUCCCCGAGAAGGGAGGGAGCCACUUUCAGGCCCUCCGGUGUG` is recorded as 0.221.

Sample 3
Target: Sal-like protein 4, full length isoform B (SALL4, Homo sapiens, UniProt Q9UJQ4-2, residues 1-616)
Technique: universal PBM
Molecule type: double-stranded DNA, one strand shown
Sample: in vitro
Tested at: not given
Setting: 8-mer, flanks averaged, mean of replicates
Reading: higher = stronger binding
The E-score of `AACGCCTA` is reported as -0.00957.
For `AGTTGGGG`, the E-score was -0.0886.
The E-score of `AGAACCGG` is reported as -0.244.
With `GACCGTTA` the E-score was 0.0569.
`AGACACAT` has an E-score of 0.037.
`ACACCTCC` gave an E-score of -0.141.
For `AACCCATA`, the E-score was 0.263.
`AAAATGCA` gave an E-score of 0.181.
`GTCGACCA` gave an E-score of -0.127.

Other studies, line by line
`PhoQ, residues 284 288 289 292 302 303 TNSAEL` gave a fold induction of 11.3 (PhoP, residues 12 14 15 18 19 SEGLL (Escherichia coli, UniProt P23836); Sort-seq, refers to: YFP reporter; E. coli; PhoQ-PhoP variant library, added: 10 µM Mg2+; baseline: high Mg2+ state, higher = stronger signaling).

Repeated from above (sample 3):
`ACACCTCC` gave an E-score of -0.141.
For `AACCCATA`, the E-score was 0.263.
`AAAATGCA` gave an E-score of 0.181.
`GTCGACCA` gave an E-score of -0.127.
